Assay results collected from several papers.
± marks the error that the study gave. Where no end group is shown, it is not given here. [ ]: non-standard residue; d: D form. The star is where a group is joined. * marks the point of attachment.
ORF1 3C-like protease: ORF1, 3C-like protease (Southampton virus, UniProt Q04544)
lethal factor mature: lethal factor mature (Bacillus anthracis, UniProt P15917)
B1: PA0254 (Pseudomonas aeruginosa, UniProt Q9I6N5); chain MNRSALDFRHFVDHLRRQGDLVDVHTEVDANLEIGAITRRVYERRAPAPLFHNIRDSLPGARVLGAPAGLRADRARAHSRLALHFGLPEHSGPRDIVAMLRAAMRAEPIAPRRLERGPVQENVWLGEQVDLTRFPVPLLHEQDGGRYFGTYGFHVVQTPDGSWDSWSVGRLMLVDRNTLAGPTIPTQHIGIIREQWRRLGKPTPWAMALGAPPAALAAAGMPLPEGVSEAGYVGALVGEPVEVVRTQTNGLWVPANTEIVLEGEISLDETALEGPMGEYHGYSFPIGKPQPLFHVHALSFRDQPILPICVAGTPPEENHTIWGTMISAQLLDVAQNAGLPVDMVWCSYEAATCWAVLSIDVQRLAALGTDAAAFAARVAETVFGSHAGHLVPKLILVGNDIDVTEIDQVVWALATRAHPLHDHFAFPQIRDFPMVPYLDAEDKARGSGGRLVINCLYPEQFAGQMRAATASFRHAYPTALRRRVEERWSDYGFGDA
B2: vpr H78C (HIV-1, UniProt P12520); sequence looked up; chain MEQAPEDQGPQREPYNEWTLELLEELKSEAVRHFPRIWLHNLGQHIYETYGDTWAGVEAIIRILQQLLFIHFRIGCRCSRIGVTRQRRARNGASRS
B3: hsaD (Mycobacterium tuberculosis, UniProt P9WNH5); chain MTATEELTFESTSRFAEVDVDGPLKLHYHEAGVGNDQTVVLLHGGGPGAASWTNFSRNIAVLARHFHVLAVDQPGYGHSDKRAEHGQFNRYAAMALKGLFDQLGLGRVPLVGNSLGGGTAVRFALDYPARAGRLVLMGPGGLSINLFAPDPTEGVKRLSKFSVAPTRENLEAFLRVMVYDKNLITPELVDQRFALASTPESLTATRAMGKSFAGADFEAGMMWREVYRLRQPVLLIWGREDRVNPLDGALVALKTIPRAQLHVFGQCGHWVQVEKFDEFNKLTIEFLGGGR
B4: VP35 1-215 (Zaire ebolavirus, UniProt Q05127); chain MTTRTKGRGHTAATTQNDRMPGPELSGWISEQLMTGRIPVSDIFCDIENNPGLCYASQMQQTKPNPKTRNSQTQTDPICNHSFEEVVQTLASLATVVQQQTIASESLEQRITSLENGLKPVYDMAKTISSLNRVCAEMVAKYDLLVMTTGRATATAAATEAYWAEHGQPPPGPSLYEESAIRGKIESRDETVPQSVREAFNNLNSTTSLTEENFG
B5: E2 DNA-binding domain 279-365 (HPV16, UniProt P03120); chain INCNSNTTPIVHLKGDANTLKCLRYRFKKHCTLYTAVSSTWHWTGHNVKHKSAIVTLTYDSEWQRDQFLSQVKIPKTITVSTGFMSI
B6: Alpha-bungarotoxin (Bungarus multicinctus, UniProt P60615); chain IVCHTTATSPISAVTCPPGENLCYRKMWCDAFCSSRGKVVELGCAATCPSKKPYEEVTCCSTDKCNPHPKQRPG
B7: RB1 pocket domain A-B, GSGS linker 372-577 (UniProt P06400); chain HTPVRTVMNTIQQLMMILNSASDQPSENLISYFNNCTVNPKESILKRVKDIGYIFKEKFAKAVGQGCVEIGSQRYKLGVRLYYRVMESMLKSEEERLSIQNFSKLLNDNIFHMSLLACALEVVMATYSRSTSQNLDSGTDLSFPWILNVLNLKAFDFYKVIESFIKAEGNLTREMIKHLERCEHRIMESLAWLSDSPLFDLIKQSKGSGSTSLSLFYKKVYRLAYLRLNTLCERLLSEHPELEHIIWTLFQHTLQNEYELMRDRHLDQIMMCSMYGICKVKNIDLKFKIIVTAYKDLPHAVQETFKRVLIKEEEYDSIIVFYNSVFMQRLKTNILQYAST
B8: motavizumab Fab; V domains shown; VH QVTLRESGPALVKPTQTLTLTCTFSGFSLSTAGMSVGWIRQPPGKALEWLADIWWDDKKHYNPSLKDRLTISKDTSKNQVVLKVTNMDPADTATYYCARDMIFNFYFDVWGQGTTVTVSS; VL DIQMTQSPSTLSASVGDRVTITCSASSRVGYMHWYQQKPGKAPKLLIYDTSKLASGVPSRFSGSGSGTEFTLTISSLQPDDFATYYCFQGSGYPFTFGGGTKVEIK
Sequence of UniProt Q96AX9 (whole entry, looked up): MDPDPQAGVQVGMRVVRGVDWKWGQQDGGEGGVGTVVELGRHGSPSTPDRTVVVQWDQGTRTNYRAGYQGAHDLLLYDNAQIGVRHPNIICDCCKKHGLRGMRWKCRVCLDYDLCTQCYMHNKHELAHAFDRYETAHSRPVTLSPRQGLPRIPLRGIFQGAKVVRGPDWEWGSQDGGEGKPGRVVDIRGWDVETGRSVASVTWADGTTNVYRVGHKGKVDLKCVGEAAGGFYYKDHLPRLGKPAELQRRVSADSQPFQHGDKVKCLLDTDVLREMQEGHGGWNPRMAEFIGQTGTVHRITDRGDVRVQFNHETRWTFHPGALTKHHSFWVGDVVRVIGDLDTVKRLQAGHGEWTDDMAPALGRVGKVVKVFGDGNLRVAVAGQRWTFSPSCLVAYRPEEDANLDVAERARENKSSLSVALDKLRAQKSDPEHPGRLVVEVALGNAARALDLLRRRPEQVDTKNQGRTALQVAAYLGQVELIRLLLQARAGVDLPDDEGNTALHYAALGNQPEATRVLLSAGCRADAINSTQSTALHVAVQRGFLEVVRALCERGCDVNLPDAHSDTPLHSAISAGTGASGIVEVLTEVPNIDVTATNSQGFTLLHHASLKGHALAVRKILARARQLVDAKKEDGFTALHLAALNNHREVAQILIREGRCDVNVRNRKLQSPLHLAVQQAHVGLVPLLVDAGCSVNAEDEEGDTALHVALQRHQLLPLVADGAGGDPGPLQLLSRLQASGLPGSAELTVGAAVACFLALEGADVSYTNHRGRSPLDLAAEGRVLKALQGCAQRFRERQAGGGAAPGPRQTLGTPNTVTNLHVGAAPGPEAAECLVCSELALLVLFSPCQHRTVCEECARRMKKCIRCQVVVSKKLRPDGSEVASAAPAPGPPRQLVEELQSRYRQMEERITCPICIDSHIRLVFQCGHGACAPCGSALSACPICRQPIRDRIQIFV
Sequence of UniProt P22770 (whole entry, looked up): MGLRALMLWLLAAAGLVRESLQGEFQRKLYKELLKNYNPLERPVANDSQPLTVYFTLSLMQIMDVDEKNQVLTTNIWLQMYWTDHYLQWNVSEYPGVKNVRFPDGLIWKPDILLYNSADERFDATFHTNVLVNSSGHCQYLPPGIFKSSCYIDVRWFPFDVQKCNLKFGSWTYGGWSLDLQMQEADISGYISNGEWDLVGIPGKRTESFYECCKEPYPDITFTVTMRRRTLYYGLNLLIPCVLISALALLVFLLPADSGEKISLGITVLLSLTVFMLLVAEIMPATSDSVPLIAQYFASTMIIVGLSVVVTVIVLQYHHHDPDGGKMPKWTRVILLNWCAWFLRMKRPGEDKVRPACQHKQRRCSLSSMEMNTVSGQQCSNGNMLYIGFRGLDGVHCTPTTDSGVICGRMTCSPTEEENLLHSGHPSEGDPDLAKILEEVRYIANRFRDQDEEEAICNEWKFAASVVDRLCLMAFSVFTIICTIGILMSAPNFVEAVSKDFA
Sequence of UniProt Q9Y4B6 (whole entry, looked up): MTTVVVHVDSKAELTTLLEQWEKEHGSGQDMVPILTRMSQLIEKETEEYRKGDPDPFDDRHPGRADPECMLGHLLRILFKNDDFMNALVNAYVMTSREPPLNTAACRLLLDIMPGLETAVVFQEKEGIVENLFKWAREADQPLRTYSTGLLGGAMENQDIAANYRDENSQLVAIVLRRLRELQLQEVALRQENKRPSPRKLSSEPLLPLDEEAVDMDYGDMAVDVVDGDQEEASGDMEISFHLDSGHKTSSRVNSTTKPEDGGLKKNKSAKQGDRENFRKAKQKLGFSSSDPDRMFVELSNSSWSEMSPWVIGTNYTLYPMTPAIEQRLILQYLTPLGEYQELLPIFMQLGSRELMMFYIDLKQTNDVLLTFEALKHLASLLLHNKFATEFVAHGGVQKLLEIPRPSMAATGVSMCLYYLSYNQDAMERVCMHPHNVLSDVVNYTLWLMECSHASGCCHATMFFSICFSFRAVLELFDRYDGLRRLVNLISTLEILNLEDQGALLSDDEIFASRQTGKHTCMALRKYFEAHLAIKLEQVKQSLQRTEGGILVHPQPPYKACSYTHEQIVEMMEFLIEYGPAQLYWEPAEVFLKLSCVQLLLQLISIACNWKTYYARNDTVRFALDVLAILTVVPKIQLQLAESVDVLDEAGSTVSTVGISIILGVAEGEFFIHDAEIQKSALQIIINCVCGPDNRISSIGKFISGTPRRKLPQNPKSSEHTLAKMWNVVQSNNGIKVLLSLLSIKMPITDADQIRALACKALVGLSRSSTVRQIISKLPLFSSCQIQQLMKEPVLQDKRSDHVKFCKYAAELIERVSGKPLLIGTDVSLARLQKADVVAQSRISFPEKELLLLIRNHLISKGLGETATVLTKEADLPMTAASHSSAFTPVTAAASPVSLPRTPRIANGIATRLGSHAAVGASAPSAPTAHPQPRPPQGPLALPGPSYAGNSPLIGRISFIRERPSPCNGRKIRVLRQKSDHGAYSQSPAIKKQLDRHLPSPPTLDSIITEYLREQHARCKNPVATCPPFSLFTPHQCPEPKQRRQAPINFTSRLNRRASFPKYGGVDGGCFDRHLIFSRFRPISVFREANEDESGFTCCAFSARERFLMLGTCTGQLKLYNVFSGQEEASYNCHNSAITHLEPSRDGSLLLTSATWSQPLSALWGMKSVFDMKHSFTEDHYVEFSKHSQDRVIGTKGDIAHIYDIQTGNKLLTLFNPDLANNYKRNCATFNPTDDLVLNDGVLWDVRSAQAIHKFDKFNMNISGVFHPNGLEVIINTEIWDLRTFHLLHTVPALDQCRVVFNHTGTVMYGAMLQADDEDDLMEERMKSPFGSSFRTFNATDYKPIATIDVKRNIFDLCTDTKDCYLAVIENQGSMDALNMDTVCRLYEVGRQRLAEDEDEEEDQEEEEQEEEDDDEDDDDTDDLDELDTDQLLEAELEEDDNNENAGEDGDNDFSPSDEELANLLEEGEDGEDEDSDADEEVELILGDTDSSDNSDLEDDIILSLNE

Molecule	tested on	assay	system	conditions	scale	endpoint	result
Ac-DEFQLQ-pNA (N-acetyl, C-p-nitroanilide; pNA = O=[N+]([O-])c1ccc(N*)cc1)	ORF1 3C-like protease	substrate, pNA substrate cleavage		pH 8.5		kcat	0.33 s⁻¹
BM2 transmembrane peptide (Influenza B virus)		solid-state NMR, measured: His19	VM+ membrane pellets	243 K, membrane-bound tetramer, no drug, fourth protonation		pKa	4.2
[dR][dR][dR][dR][dR][dR][dR][dR][dR]VLR (peptide; D-Arg residues 1-9)	lethal factor mature	enzyme activity, inhibitor, steady-state kinetics	peptide			Ki	12.2 nM
B1 (PA0254)	O=C(O)c1ccc[nH]1	steady-state kinetics		pH 6, apparent		kcat	35.8 ± 0.8 s⁻¹
B2 (vpr H78C)	DCAF1 1046-1396 (Homo sapiens, UniProt Q9Y4B6)	crystal structure		pH 5.6, 16 °C, co-crystal with UNG2		binding	binds
H-[dR][dR][dR][dR][dR][dR][dR][dR][dR]VLR-{NHOH} (peptide; SMILES CC(C)C[C@H](NC(=O)[C@@H](NC(=O)[C@@H](CCCNC(=N)N)NC(=O)[C@@H](CCCNC(=N)N)NC(=O)[C@@H](CCCNC(=N)N)NC(=O)[C@@H](CCCNC(=N)N)NC(=O)[C@@H](CCCNC(=N)N)NC(=O)[C@@H](CCCNC(=N)N)NC(=O)[C@@H](CCCNC(=N)N)NC(=O)[C@@H](CCCNC(=N)N)NC(=O)[C@H](N)CCCNC(=N)N)C(C)C)C(=O)N[C@@H](CCCNC(=N)N)C(=O)NO; D-Arg residues 1-9, C-terminal hydroxamic acid; NHOH = ON*)	lethal factor mature	enzyme activity, inhibitor, steady-state kinetics	peptide			Ki	1.45 nM
B3 (hsaD)	C/C(=C\C=C(/O)C(=O)O)C(=O)CC[C@@H]1C(=O)CC[C@]2(C)C(=O)CC[C@@H]12	steady-state kinetics		pH 7.5, 25 °C		kcat/Km	27000 M⁻¹ s⁻¹
B4 (VP35 1-215)	MIB2 1-836 (Homo sapiens, UniProt Q96AX9)	ITC				Kd	5400 ± 2500 nM
Ac-EFQLQ-pNA (N-acetyl, C-pNA; pNA = O=[N+]([O-])c1ccc(N*)cc1)	ORF1 3C-like protease	substrate, pNA substrate cleavage		pH 8.5		kcat	0.14 s⁻¹
ESSELTLQELLGEER (UBE3A 403-417)	E6 (UniProt P06931)	SPR	peptide			koff	0.2 s⁻¹
B5 (E2 DNA-binding domain 279-365)	BRD4 long isoform, full-length, phosphorylated (Homo sapiens, UniProt O60885-1)	pull-down				binding	binds
QEDIIRNIARHLAQVGDSMDRSIPPG (BID 79-104 (Homo sapiens, UniProt P55957); sequence looked up)	BHRF1 1-160 (Epstein-Barr virus, UniProt P03182)	ITC	peptide			ΔH	4.3 ± 0.741 kcal/mol
B6 (Alpha-bungarotoxin)	CHRNA7 (Gallus gallus, UniProt P22770)	radioligand binding			relative to: wild type, higher = more total toxin binding	relative total binding	100%
B7	E7 (HPV16, UniProt P03129)	NMR				binding	binds
B8 (motavizumab Fab)	RSV F peptide fragment	crystal structure	Fab			binding	binds
nsp16 (SARS-CoV-2, UniProt P0DTD1)	itself	cross-linking				subunits per oligomer	2

Repeated from above:
Molecule	tested on	assay	system	conditions	scale	endpoint	result
B6 (Alpha-bungarotoxin)	CHRNA7 (Gallus gallus, UniProt P22770)	radioligand binding			relative to: wild type, higher = more total toxin binding	relative total binding	100%
B7	E7 (HPV16, UniProt P03129)	NMR				binding	binds
